{"data": "Experimental data pooled from the literature", "note": "Each line is one published result; not all experiments were run side by side."}
{"Compound": "COc1ccc([C@@H](O)c2cc(-c3ncnc4cc(N5CCOCC5)ccc34)c(F)cc2Cl)nn1", "assay": "refers to: Anemia", "system": "locally advanced rectal cancer patients", "conditions": "dose not given, all dose groups, added: capecitabine plus radiotherapy", "measurement": "patients with drug-related AE", "result": "26%"}
{"Compound": "CNC(=O)c1ccc(-c2cnc3ncc(Cc4ccc5ncccc5c4)n3n2)cc1F", "assay": "refers to: Nausea", "system": "cancer patients", "conditions": "oral, 600 mg twice daily, all expansion cohorts, grade 3-4", "measurement": "patients with adverse event", "result": "5%"}
{"Compound": "COc1cc(Nc2ncc3c(n2)-c2ccc(Cl)cc2C(c2c(F)cccc2OC)=NC3)ccc1C(=O)O", "assay": "refers to: Hypokalemia, grade 1", "system": "cancer patients, phase 1/2", "conditions": "oral, dose not given, added: pembrolizumab", "measurement": "patients with adverse event", "result": "13%"}
{"Compound": "Cc1cc(NC2CCN(C(=O)OC3CCN(C(=O)/C=C/CN(C)C)C3)CC2)n2ncc(C(C)C)c2n1 (centres unmarked)", "assay": "Phase I dose escalation CTCAE v4.0, refers to: pain in extremity", "system": "patients with advanced solid tumours", "conditions": "dose not given, Total dosing grade 3 or higher", "measurement": "patients with adverse event", "result": "0%"}
{"Compound": "O=C(Nc1nc2cccc(-c3ccc(CN4CCS(=O)(=O)CC4)cc3)n2n1)C1CC1", "assay": "refers to: anaemia", "system": "rheumatoid arthritis patients", "conditions": "oral, 300 mg once daily, 4 weeks, any relatedness", "measurement": "patients with adverse event", "result": "0%"}
{"Compound": "C[C@@H](Nc1cc(F)cc(F)c1)c1cc(C(=O)N(C)C)cc2c(=O)cc(N3CCOCC3)oc12", "assay": "refers to: Hypotension", "system": "advanced solid tumour patients", "conditions": "oral, dose not given, dose finding", "measurement": "patients discontinuing for AE", "result": "0%"}
{"Compound": "Cc1cc(-c2nnc(N)nc2-c2ccc(F)cc2)cc(Cl)n1", "assay": "refers to: Rash", "system": "IO-naive colorectal cancer patients", "conditions": "oral, dose not given, treatment-related, grade ≥3", "measurement": "patients with immune-mediated AE", "result": "0%"}
{"Compound": "CCOc1c([C@H](C)n2nc(C)c3c(N)ncnc32)cc(Cl)c(F)c1[C@@H]1CNC(=O)C1", "assay": "refers to: QTcF ≤450 ms", "system": "previously treated B-cell malignancy", "conditions": "oral, 45 mg once daily, overall population", "measurement": "patients", "result": "100%"}
{"note": "Repeated from above:"}
{"Compound": "CCOc1c([C@H](C)n2nc(C)c3c(N)ncnc32)cc(Cl)c(F)c1[C@@H]1CNC(=O)C1", "assay": "refers to: QTcF ≤450 ms", "system": "previously treated B-cell malignancy", "conditions": "oral, 45 mg once daily, overall population", "measurement": "patients", "result": "100%"}
